Experimental data from different studies.
Parts stem from different laboratories: compare values within a part only. Changes are numbered by the printed parent chain.

Set 1 — technique: protein-binding microarray; form: double-stranded DNA, one strand shown; medium: in vitro; concentration: 940 nM top; setting: 60-bp whole probe; together with: salmon DNA 0.4 mg/ml; relative to: random background probes; direction: higher = stronger binding; all sequences stand within: GCCTAGCAC … GTCTTGATTCGCTTGACGCTGCTG
Target: Interferon regulatory factor 5, full length, phosphomimetic (IRF5, Homo sapiens, UniProt Q13568-2, residues 1-514, S451D/S453D/S456D/S462D)
Sequence	fitted relative affinity [z-score]
GACGATATCGCGTATCGAGACGTGCTA	0.349
GAGGAACTGAGTCTCGAGACGTGCTAG	0.505
TCTACTGTCTGTTTCCTCTTGTGCTAG	0.939
GAATGTCCTCCTCTCTCTTTGTGCTAG	0.399
TGAGATTTCGGGTATCGATTAGTGCTA	3.8
GACGTACTGAGACTGGAGACGTGCTAG	-0.188
TTAGATTTCAGTCCCGATTAGTGCTAG	1.01
GACGGTTTCCTTATCCGGACGTGCTAG	2.23
TCATATATCTGAACCGCACTGTGCTAG	0.543
TTAGGTATCGACTTACGGTTAGTGCTA	5.92
GACGGTATCGGGACTGGGTACGTGCTA	2.81
GACGGTATCCACACTGGGGACGTGCTA	0.0761
GGGATGGTGGGGCTCCTCCTGTGCTAG	0.106
GAAGGTTTCGGGACTGGGGACGTGCTA	5.84
GGCAGGAATAAAGGAGCAGCGTGCTAG	-0.923
TTAGATTCCAGTTACGATTAGTGCTAG	0.636
CTCTTTGTTTCACTTCCTGGTGTGCTA	3.37
CCTTGCATGTTTTTGACAAAGTGCTAG	0.172
TTAGATTTCGGGTTTCGATTGGTGCTA	5.44
GACGGTATCTACTATCGGGACGTGCTA	1.13
TCAGTTTCCAGTATATTACTGTGCTAG	1.37
GACGGACTGGGTATCGCGACGTGCTAG	-0.317
AGACATGACACCACTCCTGAGTGCTAG	0.135
TTAGGGTTCGGACTGGGTTAGTGCTAG	-0.0617
GACGGTTGCCTACTGCTGACGTGCTAG	-0.421

Set 2 — technique: RNA Bind-n-Seq; form: RNA; medium: in vitro; concentration: 365 nM; relative to: no-protein control; direction: higher = stronger binding
Target: RNA binding protein fox-1 homolog 2, RRM domain, GST-SBP tag (RBFOX2, Homo sapiens, UniProt O43251-10, residues 100-194)
Setting: natural RNA segment, single round, ends assumed
All sequences stand within: GGGAGUUCUACAGUCCGACGAUC … UGGAAUUCUCGGGUGCCAA
Sequence	RBNS enrichment (R)
UAGGAGAAAUAUAAAUACAGUAAGUUUAGAUUAUUGAAUUGGUGCUUGAAAUUUAUUGGUUUUGUUGUAAUUUUAUACAGAUUAUAUGAGGGAUAAGAUACUCAUCAAAU	1.51
UGCCUUUGAAUGCUAUAGCAUAUUUAGUGUGAGGACUGGGGACCCAGUAAGAUUUAGAGAGCAAUAUAGCAAAACCUGUCAUCUUGGACCUUUUUCACAGCUGAUGCUAU	2.05
CCGGAUCCCUCCUCACUUGCCCUGCCACUUUGCAUGGUUUGAUUUUGACCUGGUCCCCCACGUGUGAAGUGUAGUGGCAUCCAUUUCUAAUGUAUGCAUUCAUCCAACAG	1.29
UGCUAAACCGUGGCAAUUCAUCAACGGGAAACAUUAGUGAAUUGAAGGCAUUCCUUGUUUUUAACUAAUAUUUGCACAUUUUCUUAGUCUCCUUCCUGAUGGUCGCCCGU	0.366
CACUCUGGCCCUGGAGCCGCCUUUGUUAACAGCAACAAGAAUGCUGCAGUGCUACAACGUGCUGGAAGAUGUGUCAGAUUUGCUUUAAAGAUGAGAAUCUGGUGUUUCUG	0.401
GUGAGCUCUUCUCUGUCGCCCUGAAGGGUCACUGUAUUCUGUAUGAAUGCAUGGCAUGAUACAACUAAUUUAAGAGUCUUUUAUAAAUAAAGUUUGCAUUAACUAUACCU	9.61
AAGUCAAAAUUUAAUAUUGGUUCUUUAACUGAAAUAUUUAAUUGAGCACUUACAUCUCUAUUGCUUUAACAGAAGGAUACUACUUCAGGAAAAUAUAUGUAAUAUGUAAA	0.42
GUAAAUGAAAAUGCAGCUCUGCACGAGUUUGAAACCGUCAUACCUCCUUCUAUUAGGAAUGGCAUAUACUGAGGUGGUCGUAAGUCUUAACUUCUAAAAUUUUAAAUAAA	0.644
GAGGCACGUGAUCAGUGUUGCAACAUAAUGAAAAAGAUGGCUACUGUGCCUUGUGUUACUUAAUCAUACAGUAAGCUGACCUGGAAAUGAAUGAAACUAUUACUCCUAAG	1.76
UUAGAACCUGUCUGCCACUAUCUGAUGACUUACAUUGUGGUUUUCUACAAGCCACCUCAGUUAACUUUGGUUCCCCGUGGACUCCCAGGCUGGAGGAGGAAAGCGUGAGG	0.955
UUUUUAAGACUAAGGCAGUUUAUAGAAUGAAGUAUAUCAAUAUUCUUUUGGUUUCCCAAAGCAAUAUUUUACUUUUCAUUUAUUAUAGUUUGAAAGACAUUUUUCAUUGU	0.665
CUUGGUCCUGGGGACCACCUGCCUGGGGCAGUGGACAUCCUAACUAAACAGGCUUCUGGCAGUAGCUUUGGUUCCUAUCCCAUCGAAAUUCCCCAAAGCCCUGGGCCACU	0.461

Set 3 — technique: protein binding microarray; form: double-stranded DNA, one strand shown; medium: in vitro; concentration: not given; relative to: not given; direction: higher = stronger binding
Target: Histone acetyltransferase KAT6A, winged helix 2, GST fusion (KAT6A, Homo sapiens, UniProt Q92794, residues 85-181)
Setting: 8-mer, flanks averaged, mean of 2 arrays, mostly near background
Target sequence (chain): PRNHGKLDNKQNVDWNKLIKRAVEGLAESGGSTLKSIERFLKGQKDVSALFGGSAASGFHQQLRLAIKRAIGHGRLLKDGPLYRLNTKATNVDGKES
Sequence	E-score
CTGGCACA	0.0361
GCAGTATA	-0.051
AGAATATA	-0.227
CACAACCA	0.0539
ATTGAGGG	0.0755
GTGGTCTA	-0.123
ACTTGACC	-0.0476
AAGGTCGC	0.00377
AATATAAT	-0.089
CCGCACTC	0.161
AAGTCCGG	0.0116
CTACGTCC	-0.122
AGGCGGTC	0.173
GGCAATTA	-0.0289
TGCAGTAA	-0.211
CGAATCAG	0.0203
CACATGGA	-0.0307
TTTCGAAA	0.125

Set 4 — target: CCND3, cyclin fold, Cln2 fusion (human); technique: yeast growth competition, sequencing; medium: yeast; setting: weak parent motif; relative to: not given; direction: higher = stronger binding
Starting sequence: CDAN1 docking peptide (human); RGARSQLFPPTEA; partner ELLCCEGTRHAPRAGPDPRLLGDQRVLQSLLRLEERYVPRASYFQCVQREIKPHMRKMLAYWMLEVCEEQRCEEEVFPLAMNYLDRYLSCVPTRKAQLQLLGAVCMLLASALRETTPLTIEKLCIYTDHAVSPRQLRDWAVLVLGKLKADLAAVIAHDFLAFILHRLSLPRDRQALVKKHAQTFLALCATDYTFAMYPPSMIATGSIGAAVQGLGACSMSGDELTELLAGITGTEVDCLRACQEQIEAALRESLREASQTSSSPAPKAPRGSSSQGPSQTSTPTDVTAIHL
Substitution	normalised enrichment score
RGARSALFPPTEA [Q6A]	-0.266
RAARSQLFPPTEA [G2A]	0.107
RGARAQLFPPTEA [S5A]	-0.0529
RGARSQLFPPAEA [T11A]	0.0882
RGARSQLFPPTAA [E12A]	0.342
RGARSQLAPPTEA [F8A]	0.393

Set 5 — technique: aptamer microarray, sandwich; form: DNA with 2'F-ANA; medium: in vitro; concentration: 200 nM; together with: Cy3 exosite-II aptamer, 400 nM; direction: higher = stronger binding; sequence: GGTTGGTGTGGTTGG
Target: Prothrombin, mature alpha-thrombin (F2, Homo sapiens, UniProt P00734)
Setting: whole 15-mer aptamer, many near background
Modification	mean fluorescence intensity [a.u.]
2'F-ANA at 2 3 5 6 8 10 14 15	126
2'F-ANA at 1 2 4 7 12 15	378
2'F-ANA at 1 5 6 8 9 10 11 15	47.3
2'F-ANA at 1 3 4 5 6 9 11 12 13 14	49.4
2'F-ANA at 4 5 6 8 9 10 14 15	50.9
2'F-ANA at 2 3 4 6 7 10 12 13 14	160
2'F-ANA at 1 3 7 8 9 11 13 14	99.7
2'F-ANA at 1 2 3 4 5 6 8 9 15	97.3
2'F-ANA at 3 7 11 15	1110
2'F-ANA at 3 5 8 9 10 15	61.8
2'F-ANA at 1 2 3 4 9 12 13	234
2'F-ANA at 7 8 10 12 14 15	126
2'F-ANA at 1 2 5 6 7 8 10 14	46.6
2'F-ANA at 1 7 8 10 12 14	46.5
2'F-ANA at 3 4 6 8 10 12 15	266
2'F-ANA at 1 3 5 7 8 9 13 15	56.6
2'F-ANA at 2 3 5 6 7 9 15	81.6
2'F-ANA at 4 6 9 10 12 15	91.3
2'F-ANA at 6 7 8 15	658

Excerpt of the above (set 1):
Sequence	fitted relative affinity [z-score]
TCAGTTTCCAGTATATTACTGTGCTAG	1.37
AGACATGACACCACTCCTGAGTGCTAG	0.135
GAAGGTTTCGGGACTGGGGACGTGCTA	5.84
GACGTACTGAGACTGGAGACGTGCTAG	-0.188
TTAGGTATCGACTTACGGTTAGTGCTA	5.92
GACGGTTTCCTTATCCGGACGTGCTAG	2.23
CCTTGCATGTTTTTGACAAAGTGCTAG	0.172
GAATGTCCTCCTCTCTCTTTGTGCTAG	0.399
TCTACTGTCTGTTTCCTCTTGTGCTAG	0.939
